Assay results from different studies.
A part holds a random share of what one study measured.

Study 1
Target: RING finger protein unkempt homolog, zinc fingers 1-6, GST-SBP tag (UNK, Homo sapiens, UniProt Q9C0B0, residues 30-357)
Method: RNA Bind-n-Seq
Form: RNA
Sample: in vitro
Tested at: not given
Notes: RNA with constant flanks, human and mouse sites, ends assumed
Baseline: input RNA pool
Reading: higher = stronger binding
Residues (chain): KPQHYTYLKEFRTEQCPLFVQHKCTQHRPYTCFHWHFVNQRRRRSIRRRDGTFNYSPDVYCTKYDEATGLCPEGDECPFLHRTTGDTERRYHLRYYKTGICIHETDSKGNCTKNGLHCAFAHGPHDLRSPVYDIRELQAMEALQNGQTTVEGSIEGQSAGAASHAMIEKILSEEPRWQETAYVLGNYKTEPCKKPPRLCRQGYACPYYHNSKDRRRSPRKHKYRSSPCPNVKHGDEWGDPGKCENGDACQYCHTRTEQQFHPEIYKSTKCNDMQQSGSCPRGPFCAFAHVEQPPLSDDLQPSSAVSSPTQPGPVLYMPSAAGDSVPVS
Oligonucleotide	bound/input enrichment
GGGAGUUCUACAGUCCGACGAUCCUAGUGUCUGUGCUCAAAGGACUGCCUUCUCCUCCAGUGCCCAGUGUGUGAAUGUGCGACCCUUCUUUCACCAUUCCGUGGCUGGACGUAGCCUUCUCCCUUACUGCAUCCCCAGGGGAUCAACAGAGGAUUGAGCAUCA	0.157 ratio
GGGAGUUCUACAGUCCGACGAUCGGCAAAACUUUGUAGUCACCCUUAUCUGUGAAAUGAAUGACUUGUUUUAACAAAAACAACUUUGACACUGUUGAUUAAGAAUAUUUGUCAUCACUGGGAUGUGAAUCCCAACAAGUCAUUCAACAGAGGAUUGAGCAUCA	0.16 ratio
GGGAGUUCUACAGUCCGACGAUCCAAAGAAAUUGAUACCUGUUAGCAUUCACUGCCACCAUAUUUUAAGGAGAAAGAACUCUAUUGGUGUCGUCUGAGCAGCCAUUUAAAAAUUGGAAUCUAAAGGAUGGUUGCUGAUGUACUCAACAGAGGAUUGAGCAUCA	0.353 ratio
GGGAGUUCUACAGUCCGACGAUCCUGUAUCUUUCUGCUAUUCGAAAGAUCCCAGCCUUGACUGAAAAUGAUCCUGAAACUUGGAUAGUUUGUAAUUUUUCUGUGGAUCAUGAUAGUGCUCCUCUGAACAAUCGAUGUGUCCGUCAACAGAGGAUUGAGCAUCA	0.315 ratio
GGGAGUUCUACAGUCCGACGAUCCUGGUUGAUGGUGUUAAGAAAUUGUCAAUCUCUACUCCUGACAGAGGAAAAGAAGAUUCUAGUACUCCAGUUAUGAAAGAUGAGAACACCCCCAUACCACAGGACACAAGAGGCUUAUCACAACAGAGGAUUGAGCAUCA	0.441 ratio
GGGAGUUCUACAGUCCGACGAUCAUGGGCCGAAUGAAGCUGUUGCAACAGAUGUCCCGGGUCUGGAAAACAGAUGGCUUAUCGAGUUGUUCUUACAGAUUACUCUCUGUGGAGCACAACCCUUUAUAUGCCAACAUCACAGUGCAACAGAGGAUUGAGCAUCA	0.0942 ratio
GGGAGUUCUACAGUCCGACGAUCGACAAAAAAGCAGAAAUUCUAAUUAACAAGACACAUAAGCAGCAGUUUAAUAAACUCAUUACUAGCCAGGCUGUGCAUGUUACAACUCAUUCUAAAAAUGCUUCACACAGGGUUCCAAGACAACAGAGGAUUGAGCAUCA	0.483 ratio
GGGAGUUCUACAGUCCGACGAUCAUGAUUUAUGAGAUCAUUGAUAAUUCUCAAGGAUUUUAUGUAUGCCCAGUGGAGCGCCAGAAUAGAAGCAGGAUGAACAUCCCAUUUCGCAUUGGCAACGCCAAAGGAGACGAAGCUUUGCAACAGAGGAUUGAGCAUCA	0.261 ratio
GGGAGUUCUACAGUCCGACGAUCGAUCACCAGGAGAUGAAUUUUGUAAGCAGCGCCUUCCUCAACUAAAUUCUAAGGAUAAUAAAUUUUUGACCUGUACAGAAGAAGAUGGGGUGCUGGUUUACCACCAUGCCCAGGAUGUCACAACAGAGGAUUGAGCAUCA	0.247 ratio
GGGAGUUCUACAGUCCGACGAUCGAUAUGGGCUAUAAUACUUUAGCCAACUUCCGAAUAGAAAAGAAAAUUGGUCGUGGACAAUUUAGUGAAGUUUAUAGAGCAUCCUGUCUCUUGGAUGGAGUGCCGGUAGCGUUAAAAAAACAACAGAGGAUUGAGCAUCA	44.5 ratio

Study 2
Target: Ras GTPase-activating protein-binding protein 1, full length (G3BP1, Homo sapiens, UniProt Q13283)
Sequence of UniProt Q13283 (whole entry, looked up): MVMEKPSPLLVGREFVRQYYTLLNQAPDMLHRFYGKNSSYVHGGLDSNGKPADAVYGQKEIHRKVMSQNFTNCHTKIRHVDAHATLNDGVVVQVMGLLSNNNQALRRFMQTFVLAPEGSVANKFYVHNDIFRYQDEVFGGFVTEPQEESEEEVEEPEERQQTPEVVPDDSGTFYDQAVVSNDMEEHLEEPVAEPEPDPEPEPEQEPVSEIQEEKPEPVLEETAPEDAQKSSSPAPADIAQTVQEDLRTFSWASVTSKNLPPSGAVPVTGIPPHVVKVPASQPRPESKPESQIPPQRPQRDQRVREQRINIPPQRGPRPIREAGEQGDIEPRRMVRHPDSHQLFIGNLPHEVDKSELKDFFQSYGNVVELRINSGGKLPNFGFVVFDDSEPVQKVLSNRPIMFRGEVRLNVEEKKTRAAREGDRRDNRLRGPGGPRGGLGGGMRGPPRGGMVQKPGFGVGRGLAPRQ
Method: RNA Bind-n-Seq
Form: RNA
Sample: in vitro
Tested at: 200 nM
Notes: whole 134-nt RNA, ends assumed
Added: 150 mM KCl
Baseline: input library
Reading: higher = stronger binding
Oligonucleotide	log2 enrichment
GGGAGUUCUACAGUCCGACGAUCGUCCUGUGCUACACAUCGUAUGUACCGAAUCGGCCCCCCGGCCCCCCGGCCCCCCGGGGAAAGUAUUAUGUUACGCCGUUCGGAUCUGCAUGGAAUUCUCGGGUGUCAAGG	0.0127
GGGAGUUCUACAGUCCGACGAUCCCUGUGCUACACAUCGUAUGUACCGAAUCGGGGUUUUUUUGGUUUUUUUGGGUUUUUUUGGAAAGUAUUAUGUUACGCCGUUCGGAUCUGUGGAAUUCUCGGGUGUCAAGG	-0.766
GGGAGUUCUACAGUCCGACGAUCGACAGACAACACGCACCCACACAGACACAGAGGGAAGGGGUUGGGAUGGGGACAGGGUGCACAGCAGGGCGGGGUAGGACCCCAGCCCCUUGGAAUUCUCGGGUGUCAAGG	1.78
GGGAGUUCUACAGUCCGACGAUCGUCCUGUGCUACACAUCGUAUGUACCGAAUCGGGGUUUUUGGGGAGGGGAAAAAGGGGAAAGUAUUAUGUUACGCCGUUCGGAUCUGCACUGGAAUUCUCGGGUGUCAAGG	0.218
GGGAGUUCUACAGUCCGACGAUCCUGUGCUACACAUCGUAUGUACCGAAUCGGAAAAAAAGGAAAAAAAGGGGAAAAAAAGGGGAAAGUAUUAUGUUACGCCGUUCGGAUCUGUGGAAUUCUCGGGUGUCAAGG	-0.821
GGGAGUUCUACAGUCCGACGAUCCACAGACAACACGCACCCACACAGACACAGAGGGAAGGGGUUGGGAUGGGGACAGGGUGUACAGCAGGGCGGGGUAGGACCCCAGCCCCUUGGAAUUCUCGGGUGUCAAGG	1.79
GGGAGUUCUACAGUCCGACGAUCUCAAGUCCUGUGCUACACAUCGUAUGUACCGAAUCGGCCGGGGCCGGGGCCGGGAAAGUAUUAUGUUACGCCGUUCGGAUCUGCACUUCCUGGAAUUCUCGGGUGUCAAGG	-0.759
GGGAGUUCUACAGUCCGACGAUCUAUGGACAAGCAUAAUGGAACAGACAGGUUUGUGAACCAGCAGUUUCAAGAGGAAAAGUUAAAUAAAUUGCAGAAGUUACUUAUUCUUUUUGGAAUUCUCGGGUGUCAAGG	-1.97
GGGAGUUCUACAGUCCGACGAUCUCAAGUCCUGUGCUACACAUCGUAUGUACCGAAUCGGGUUUGGUUUGGUUUGGGGAAAGUAUUAUGUUACGCCGUUCGGAUCUGCACUUCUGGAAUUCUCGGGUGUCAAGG	-0.792
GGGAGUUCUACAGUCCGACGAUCCAAGUCCUGUGCUACACAUCGUAUGUACCGAAUCGGUUUUGGGUUUUGGUUUUGGGAAAGUAUUAUGUUACGCCGUUCGGAUCUGCACUUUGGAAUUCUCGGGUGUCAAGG	-1.11
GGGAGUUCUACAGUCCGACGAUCCACAGACAACACGCCCCCACACAGACACAGAGGGAAGGGGUUGGGAUGGGGACAGGGUGCACAGCAGGGCGGGGUAGGACCCCAGCCCCUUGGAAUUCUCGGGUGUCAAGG	2.12

Study 3
Target: Sal-like protein 4, full length isoform A (SALL4, Homo sapiens, UniProt Q9UJQ4, residues 1-1053)
Sequence of UniProt Q9UJQ4 (whole entry, looked up): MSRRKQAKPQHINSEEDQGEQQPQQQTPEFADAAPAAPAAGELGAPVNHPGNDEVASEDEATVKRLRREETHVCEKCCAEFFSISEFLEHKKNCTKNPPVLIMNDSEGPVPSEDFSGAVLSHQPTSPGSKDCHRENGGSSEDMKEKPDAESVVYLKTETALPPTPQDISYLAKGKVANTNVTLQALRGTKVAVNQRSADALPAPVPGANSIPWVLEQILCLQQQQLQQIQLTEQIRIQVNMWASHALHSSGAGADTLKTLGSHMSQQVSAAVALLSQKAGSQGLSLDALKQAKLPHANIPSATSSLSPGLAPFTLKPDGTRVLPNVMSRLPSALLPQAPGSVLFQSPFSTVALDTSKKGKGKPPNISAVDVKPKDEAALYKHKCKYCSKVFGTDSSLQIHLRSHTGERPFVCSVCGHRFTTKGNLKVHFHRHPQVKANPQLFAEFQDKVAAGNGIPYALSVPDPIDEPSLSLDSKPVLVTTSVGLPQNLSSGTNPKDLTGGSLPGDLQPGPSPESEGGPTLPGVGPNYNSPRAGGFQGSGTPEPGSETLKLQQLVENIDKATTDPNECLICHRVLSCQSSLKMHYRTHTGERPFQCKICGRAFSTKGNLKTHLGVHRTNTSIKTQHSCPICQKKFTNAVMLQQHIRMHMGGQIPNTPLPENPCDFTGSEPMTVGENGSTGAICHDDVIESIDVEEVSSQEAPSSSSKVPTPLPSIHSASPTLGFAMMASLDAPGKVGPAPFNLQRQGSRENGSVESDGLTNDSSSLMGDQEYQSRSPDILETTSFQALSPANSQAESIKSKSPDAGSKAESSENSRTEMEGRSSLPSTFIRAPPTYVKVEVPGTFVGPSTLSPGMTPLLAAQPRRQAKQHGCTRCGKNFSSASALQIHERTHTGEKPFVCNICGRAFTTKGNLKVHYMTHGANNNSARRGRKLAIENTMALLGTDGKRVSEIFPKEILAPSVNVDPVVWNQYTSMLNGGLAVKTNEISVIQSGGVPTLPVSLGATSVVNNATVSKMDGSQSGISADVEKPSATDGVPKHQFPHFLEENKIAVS
Method: universal PBM
Form: double-stranded DNA, one strand shown
Sample: in vitro
Tested at: 600 nM
Notes: 8-mer, flanks averaged, mean of replicates
Reading: higher = stronger binding
Oligonucleotide	E-score
ATCCGAAT	0.138
GAAACGCC	-0.107
AAGTGCGG	-0.0293
ATTGTAAC	0.244
CATGTGCG	-0.0154
CCGGATCA	-0.186
ACATCGTA	0.0874
CCGTCCCA	-0.247
ACAGCGCA	-0.182
AGCATACT	0.196

Further values, each from its own experiment
Substance	target	assay	test system	setting	how to read	measurement	result
PhoQ, residues 284 288 289 292 302 303 TTCLQL	PhoP, residues 12 14 15 18 19 QQAYL (Escherichia coli, UniProt P23836)	Sort-seq, measured: YFP reporter	E. coli	PhoQ-PhoP variant library, added: 10 µM Mg2+	baseline: high Mg2+ state, higher = stronger signaling	fold induction	12.4

Some of these lines once more (study 2):
Oligonucleotide	log2 enrichment
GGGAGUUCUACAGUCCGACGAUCGUCCUGUGCUACACAUCGUAUGUACCGAAUCGGGGUUUUUGGGGAGGGGAAAAAGGGGAAAGUAUUAUGUUACGCCGUUCGGAUCUGCACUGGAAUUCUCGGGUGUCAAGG	0.218
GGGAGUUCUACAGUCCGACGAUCCUGUGCUACACAUCGUAUGUACCGAAUCGGAAAAAAAGGAAAAAAAGGGGAAAAAAAGGGGAAAGUAUUAUGUUACGCCGUUCGGAUCUGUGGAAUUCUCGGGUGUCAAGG	-0.821
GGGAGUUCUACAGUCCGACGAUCCACAGACAACACGCACCCACACAGACACAGAGGGAAGGGGUUGGGAUGGGGACAGGGUGUACAGCAGGGCGGGGUAGGACCCCAGCCCCUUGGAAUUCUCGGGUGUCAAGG	1.79
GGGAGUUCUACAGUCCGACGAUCUCAAGUCCUGUGCUACACAUCGUAUGUACCGAAUCGGCCGGGGCCGGGGCCGGGAAAGUAUUAUGUUACGCCGUUCGGAUCUGCACUUCCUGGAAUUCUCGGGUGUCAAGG	-0.759
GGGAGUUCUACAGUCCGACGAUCUAUGGACAAGCAUAAUGGAACAGACAGGUUUGUGAACCAGCAGUUUCAAGAGGAAAAGUUAAAUAAAUUGCAGAAGUUACUUAUUCUUUUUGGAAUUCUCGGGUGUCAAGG	-1.97
